Experimental data gathered from unrelated publications.
Lines come from different studies, so protocols differ. ± marks the error that the study gave.

| SMILES | test system | conditions | scale | Cmax |
| --- | --- | --- | --- | --- |
| CC(C)NC[C@@H](C(=O)N1CCN(c2ncnc3c2[C@H](C)C[C@H]3O)CC1)c1ccc(Cl)cc1 | human, normal hepatic function, plasma | oral, 100 mg single dose, reference group versus Moderate | baseline: NCI classification | 49 ng/mL |
| CCCCC[C@H](O)CC[C@@H]1[C@H]2Cc3cccc(OCC(=O)O)c3C[C@H]2C[C@H]1O | human Japanese PAH patients, plasma | inhalation, 54 µg four times daily, week 12 | – | 1.03 ± 0.54 ng/mL |
| CC(C)C[C@H](NC(=O)[C@H](CCc1ccccc1)NC(=O)CN1CCOCC1)C(=O)N[C@@H](Cc1ccccc1)C(=O)N[C@@H](CC(C)C)C(=O)[C@@]1(C)CO1 | human patients, plasma | intravenous infusion 10 min, 20 mg/m^2, day 1 of cycle 1, KRd regimen | – | 1540 ± 391 ng/mL |
| C[C@@H](Oc1cc(-c2cnn(C3CCNCC3)c2)cnc1N)c1c(Cl)ccc(F)c1Cl | healthy human, plasma | oral, 250 mg single fasted, geometric mean | – | 118 ng/mL |
| CCOC(=O)C1=C[C@@H](OC(CC)CC)[C@H](NC(C)=O)[C@@H](N)C1 | healthy Indian human, plasma | oral, 75 mg single, test capsule fed | – | 32 ± 9 ng/mL |
| CC(C)(C(=O)NCC(F)(F)C(F)(F)F)C(=O)N[C@@H]1C(=O)Nc2ccccc2-c2ccccc21 | human, plasma | oral, 20 mg, day 15, together with: bevacizumab | – | 245 ng/mL |
| CCOc1cc([C@@H](CS(C)(=O)=O)N2C(=O)c3cccc(NC(C)=O)c3C2=O)ccc1OC | healthy human, both sexes, plasma | oral, 30 mg single dose, together with: rifampicin 600 mg oral once daily, dose 14 | – | 162 ng/mL |
| O=C(CCCCCCNC(=O)c1cnc(N(c2ccccc2)c2ccccc2)nc1)NO | human, plasma | oral, 160 mg daily | – | 610 ± 163 ng/mL |
| CON(C)C(=O)N1N=C(c2cc(F)ccc2F)S[C@@]1(CCCN)c1ccccc1 | human | intravenous, 1.2 mg/m^2, cycle 1 day 3, geometric mean | – | 29.8 ng/mL |
| CO[C@H]1C[C@@H]2CC[C@@H](C)[C@@](O)(O2)C(=O)C(=O)N2CCCC[C@H]2C(=O)O[C@H]([C@H](C)C[C@@H]2CC[C@@H](O)[C@H](OC)C2)CC(=O)[C@H](C)/C=C(\C)[C@@H](O)[C@@H](OC)C(=O)[C@H](C)C[C@H](C)/C=C/C=C/C=C/1C | human, whole blood | oral, 25 mg, together with: grapefruit juice | – | 174 ng/mL |
| NS(=O)(=O)OC[C@@H]1C[C@@H](n2ccc3c(N[C@H]4CCc5ccccc54)ncnc32)C[C@@H]1O | human | iv, 8 mg/m^2 single dose, day 8, geometric mean, together with: fluconazole | – | 51 ng/mL |
| CCn1c(=O)c2c(nc(/C=C/c3ccc(O)c(OC)c3)n2C)n(CC)c1=O | healthy humans, plasma | oral, 40 mg, together with: rifampin 600 mg/day | – | 7.25 ng/mL |
| CC(C)[C@@H](CS(=O)(=O)C(C)C)N1C(=O)[C@@](C)(CC(=O)O)C[C@H](c2cccc(Cl)c2)[C@H]1c1ccc(Cl)cc1 | human, plasma | oral, 60 mg, old tablet, fasted, arithmetic mean | – | 410 ng/mL |
| COC(=O)c1ccc2c(c1)NC(=O)/C2=C(\Nc1ccc(N(C)C(=O)CN2CCN(C)CC2)cc1)c1ccccc1 | healthy human controls matched to Child-Pugh A, plasma | oral, 100 mg single dose, fed, adjusted geometric mean | – | 9.3 ng/mL |
| Cc1cccc(C)c1N(CC(=O)Nc1ccc(-c2ncon2)cc1)C(=O)C1CCS(=O)(=O)CC1 | human male, plasma | oral, 400 mg single dose, geometric mean, alone | – | 1850 ng/mL |
| COc1cc(Nc2ncc3c(n2)-c2ccc(Cl)cc2C(c2c(F)cccc2OC)=NC3)ccc1C(=O)O | human patients, plasma | oral, 40 mg twice daily, combination with other drug | – | 1310 ± 287 ng/mL |
